Results of several laboratories.
Numbered parts are unrelated; each lists some results of a single study. Positions count from the first letter of the parent shown.

Study 1
Target: ABI1, truncated, D143A, DHFR fusion (Arabidopsis thaliana)
Method: DHFR PCA, deep sequencing
Matrix: yeast
Setting: methotrexate growth selection, single substitutions
Added: (+)-ABA 710 µM
Reference: wild-type fitted maximum
Reading: higher = stronger binding
Parent: PYL1, truncated, DHFR fusion (Arabidopsis thaliana); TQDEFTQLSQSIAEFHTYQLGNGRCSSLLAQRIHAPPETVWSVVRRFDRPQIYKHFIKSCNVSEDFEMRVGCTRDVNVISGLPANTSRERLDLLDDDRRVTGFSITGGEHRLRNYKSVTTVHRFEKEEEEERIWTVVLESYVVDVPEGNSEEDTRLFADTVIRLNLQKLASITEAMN
`V161I`: “relative binding score” 101%.
`E125S` — result for “relative binding score”: 106%.
Under “relative binding score”, `V43S` is recorded as 72.6%.
`H34F` — result for “relative binding score”: 99.3%.
Under “relative binding score”, `T154V` is recorded as 102%.
`H34E`: “relative binding score” 97.5%.
`S59R`: “relative binding score” 101%.
`E89S` — result for “relative binding score”: 9.73%.
For `D92C`, “relative binding score” read 93.3%.
`E64S`: “relative binding score” 99.8%.
`R111M`: “relative binding score” 91.3%.
Under “relative binding score”, `E64Y` is recorded as 97.5%.
For `S26Y`, “relative binding score” read 99%.
Under “relative binding score”, `D159N` is recorded as 97%.
For `D97F`, “relative binding score” read 106%.
`T101A` — result for “relative binding score”: 97.7%.

Study 2
Target: RNA binding protein fox-1 homolog 2, RRM domain, GST-SBP tag (RBFOX2, Homo sapiens, UniProt O43251-10, residues 100-194)
Method: RNA Bind-n-Seq
Molecule type: RNA
Matrix: in vitro
Concentration: 365 nM
Setting: natural RNA segment, single round, ends assumed
Reference: no-protein control
Reading: higher = stronger binding
Constant ends, left off below: GGGAGUUCUACAGUCCGACGAUC … UGGAAUUCUCGGGUGCCAA
Target sequence (chain): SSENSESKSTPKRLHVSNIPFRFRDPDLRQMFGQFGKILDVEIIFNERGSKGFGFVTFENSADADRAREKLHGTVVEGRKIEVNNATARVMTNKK
`CACUCCUGCUGGAUGUCCAGGCGGCCUUGGGAGGCCCAGCCCUGGGCCUGCCUGGGGCUUUAACCAUUUAUAGCACUCCUGAGAGCCGGACUGCCUCCUACUUGGGCCCG` — result for “RBNS enrichment (R)”: 0.245.
`UAGAGCUCCUGGCGCCCUCCCCUGGCCUCCAGAAGCUCAGGUGCACUUGAUGGUGGUUUCCUGUGUUCCUGUGGCGCUGCUCCUGGGGGGAAGAGUGUGCUCUAGCAGGC`: “RBNS enrichment (R)” 0.497.
For `GCCUUUUUAAAAGAGGGAUGGGAGGAUAUUACAGUAAGAAAUUAGGCUUUCUAAAAGUAUGAAACAUCCUUCAACUGGGCUCUCUUGUUAAUAGGACAUCAUAUGGUAAU`, “RBNS enrichment (R)” read 0.295.
Under “RBNS enrichment (R)”, `CUAGGCAACAUGAUGGGGACCCUCCCCAUUCUUCAUAAAAAUCCCCUCAAGAUCCUCAAGUUGAAUGUUUUGUAGAUCUUCAAGGAUAAGCCUUCUGCUUAUUCUCCUAG` is recorded as 2.2.
`GUGCCUUGGUUGACUAUUUUGGAAAUAGGCAUAUCAAGGUUCCUGAUUCAGCACUUUGCUCUUUUAAUAACAAAUCGUCCAAAGAUCUCAAAGUAAGGGUUUUUUUUUUU`: “RBNS enrichment (R)” 0.463.
For `UAAAAAUAAAAUGGCAAUUUUAGCACAAUGUUAAGAAAAUGCCCUACUUCAUUACCGCACUUUCUUGUAUUAAUAGUAUCUUAAAGCUGUUUUUAUUUUUCUUAGAAAUG`, “RBNS enrichment (R)” read 0.304.
`CCUGCGGGGCCCUGAGCCUCCCCCUGUGCCAGCAGCCCCACUCCCUCAGGGUCCAGCCAUGCCCCACCCUGGACUGAAGUUCUGCAAAGUCCUCCGAGGACCGGAACACG` — result for “RBNS enrichment (R)”: 0.506.
For `AAGCAAGAUGCCCACACAACAGGCUUAUUUUCUGUGAAGGAACCAACUGAUCUCCCCCACCCUUGGAUUAGAGUUCCUGCUCUACCUUACCCACAGAUAACACAUGUUGU`, “RBNS enrichment (R)” read 0.27.
`GCAAGGCUGCUGGCAGACUUCUCCACUGACCUGAGUGUGCUUUUUUUUUCCCCUAAAUGUAUUGCAUCAAGCCUCAGUGCUUAUGGAGUGCAGUGGUCUUCAUCUUCCCC` — result for “RBNS enrichment (R)”: 0.421.
`GGCUCCGCCCCUGCAGCCCACACAGCACAACGUCUUACCGUGCCUAUUACCAAGCGAGUGUUUGUAACCAUGUAGUUUUGGAACCCACUGCAAAAUUUUCUACUGGCCAA` — result for “RBNS enrichment (R)”: 0.474.
`GAUGUAAUGUAGUUCUUUGUUCCUGCUUUCUCUUUCAGUAUUAAACUCUCCUUUGAUAUUAUGUGGCUUUUAUUUCAGUGCCAUACAUGUUAUUGUUUUCAACCUAGAAA` — result for “RBNS enrichment (R)”: 0.847.
`ACUGUGCUCAGCUUUGAAAAGAACAAAGAUUUAUACCUCUGUACAUGUGGAUAGAUAGAAGUGUCCUGUUUUGAUACUAAUUUUGAAAGUUGAUUAUCUUCUCUUGAUAU` — result for “RBNS enrichment (R)”: 0.386.

Study 3
Target: Histone acetyltransferase KAT6A, winged helix 1, GST fusion (KAT6A, Homo sapiens, UniProt Q92794, residues 1-85)
Method: protein binding microarray
Molecule type: double-stranded DNA, one strand shown
Matrix: in vitro
Concentration: not given
Setting: 8-mer, flanks averaged, mean of 2 arrays, mostly near background
Reference: not given
Reading: higher = stronger binding
Residues (chain): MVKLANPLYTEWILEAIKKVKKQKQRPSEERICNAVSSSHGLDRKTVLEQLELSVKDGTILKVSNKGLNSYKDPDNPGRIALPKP
For `AGGCAGAG`, the E-score was -0.19.
With `GCGACACA` the E-score was 0.0961.
For `AGGGTTTA`, the E-score was -0.162.
For `TAACACGA`, the E-score was 0.0836.
`GTGAGTTA` gave an E-score of -0.198.
With `AATTGTCC` the E-score was -0.0954.
`TGGTAGAA` gave an E-score of -0.134.
`CCATCATA` has an E-score of -0.237.
For `CAGCCAAG`, the E-score was -0.144.
With `CACCCTAC` the E-score was -0.139.
The E-score of `AACCTGCC` is reported as -0.0499.
`AGAAATCG` has an E-score of -0.214.
`CACTACGA` has an E-score of -0.0945.
With `ATTTTCCC` the E-score was -0.00604.
The E-score of `GCAGAAGC` is reported as 0.0918.
The E-score of `ATCACGAC` is reported as -0.131.
The E-score of `ACAAAAAA` is reported as -0.135.
The E-score of `AACTTTAA` is reported as 0.0102.
The E-score of `AACCCCCC` is reported as -0.213.
`CACACGAC` has an E-score of 0.0431.
With `CATATCTC` the E-score was -0.201.
The E-score of `ACCCCCGG` is reported as 0.172.
With `ACGTAACC` the E-score was 0.0195.
With `AGGAGATA` the E-score was -0.173.
For `GTATTCAA`, the E-score was -0.0417.

Study 4
Target: BATF, bZIP domain (human)
Method: DHFR protein complementation
Matrix: yeast
Setting: single substitutions, most at no-binding floor
Reference: wild-type JUN-FOS pair
Reading: higher = stronger binding
Parent: JUN, bZIP domain (human); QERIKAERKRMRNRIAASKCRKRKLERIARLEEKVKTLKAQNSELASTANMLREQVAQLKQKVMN; partner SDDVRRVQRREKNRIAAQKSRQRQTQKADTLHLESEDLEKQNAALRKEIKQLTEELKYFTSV
With `A49Q` the binding fitness was -0.514 natural log.
`M51H` has a binding fitness of 0.0142 natural log.
The binding fitness of `Q41C` is reported as -1.51 natural log.
`R53F` gave a binding fitness of -0.691 natural log.
For `L38V`, the binding fitness was -0.649 natural log.
For `T37K`, the binding fitness was 0.0494 natural log.
The binding fitness of `N42S` is reported as -0.456 natural log.
`E44M` has a binding fitness of -0.0322 natural log.
`A40N` gave a binding fitness of -0.0485 natural log.
`V56Q` gave a binding fitness of -0.965 natural log.
With `V56E` the binding fitness was -1.3 natural log.
For `T37R`, the binding fitness was 0.0475 natural log.
With `V35Q` the binding fitness was -0.347 natural log.
The binding fitness of `K34H` is reported as 0.053 natural log.
For `E33D`, the binding fitness was -0.0682 natural log.
The binding fitness of `V35W` is reported as -0.176 natural log.
The binding fitness of `R53V` is reported as -0.555 natural log.
For `E44V`, the binding fitness was -0.0737 natural log.
With `E54G` the binding fitness was 0.0232 natural log.
`R53W` gave a binding fitness of -0.733 natural log.
With `A29S` the binding fitness was -0.0568 natural log.
With `S47D` the binding fitness was 0.0574 natural log.
For `E44W`, the binding fitness was -0.179 natural log.
With `E32T` the binding fitness was -0.127 natural log.
With `E33H` the binding fitness was -0.168 natural log.

Study 5
Target: CCNB2, cyclin fold, Cln2 fusion (human)
Method: yeast growth competition, sequencing
Matrix: yeast
Setting: weak parent motif
Reference: not given
Reading: higher = stronger binding
Parent: PKN2 docking peptide (human); VSAVRKLDFSDTM; partner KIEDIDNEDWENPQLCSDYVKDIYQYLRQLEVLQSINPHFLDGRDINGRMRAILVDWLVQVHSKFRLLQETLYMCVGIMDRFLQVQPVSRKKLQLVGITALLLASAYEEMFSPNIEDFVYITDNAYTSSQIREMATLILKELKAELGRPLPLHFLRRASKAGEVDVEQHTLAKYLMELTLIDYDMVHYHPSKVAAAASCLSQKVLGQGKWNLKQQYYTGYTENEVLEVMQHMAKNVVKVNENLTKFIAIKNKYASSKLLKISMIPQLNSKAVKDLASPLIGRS
`VSAHRKLDFSDTM [V4H]`: “normalised enrichment score” -0.214.
For `VWAVRKLDFSDTM [S2W]`, “normalised enrichment score” read 0.573.
`VSAVFKLDFSDTM [R5F]`: “normalised enrichment score” -0.48.
`VSAVRKNDFSDTM [L7N]`: “normalised enrichment score” 0.342.
Under “normalised enrichment score”, `VSAVRKQDFSDTM [L7Q]` is recorded as 0.0294.
For `VNAVRKLDFSDTM [S2N]`, “normalised enrichment score” read 0.504.
Under “normalised enrichment score”, `VSAVRKLDFSDQM [T12Q]` is recorded as 0.599.
For `VSAVSKLDFSDTM [R5S]`, “normalised enrichment score” read -0.167.
Under “normalised enrichment score”, `VSAVRKLDFSGTM [D11G]` is recorded as 0.379.
`VSAVRKEDFSDTM [L7E]`: “normalised enrichment score” -0.21.
Under “normalised enrichment score”, `VSAWRKLDFSDTM [V4W]` is recorded as 0.212.
`VSAVRKLWFSDTM [D8W]`: “normalised enrichment score” -0.0544.
`VSAVRKLDFSMTM [D11M]` — result for “normalised enrichment score”: -0.152.
`VSASRKLDFSDTM [V4S]`: “normalised enrichment score” 0.376.
`VSAVRKLDCSDTM [F9C]`: “normalised enrichment score” 0.335.
`VSAIRKLDFSDTM [V4I]` — result for “normalised enrichment score”: 0.177.
For `VSAVRKLDFSDHM [T12H]`, “normalised enrichment score” read 0.526.

Single results of other studies
For `PhoQ, residues 284 288 289 292 302 303 ALVSVA`, the fold induction was 29.4 (PhoP, residues 12 14 15 18 19 IQFRS (Escherichia coli, UniProt P23836); Sort-seq, refers to: YFP reporter; E. coli; PhoQ-PhoP variant library, added: 10 µM Mg2+; reference: high Mg2+ state, higher = stronger signaling).
